Measured values pooled from the literature.
Each line is one published result; not all experiments were run side by side. “And” joins repeats or separate records; there may be more than shown. Numbers after ± are the reported error.

Compound = C=CC(=O)N1CCC(c2ccc(C(N)=O)c(-c3ccc(Oc4ccccc4)cc3)n2)CC1; system = relapsed/refractory mantle cell lymphoma patients; setting = oral, dose not given, part, all doses, CTCAE v4.03; measurement = serious treatment-related AE rate; value = 0%
Compound = Cc1oc(C)c(S(=O)(=O)NCC(F)(F)c2ccc(Br)cc2)c1C(=O)O; test = colloidal aggregate formation, dynamic light scattering; system = 50 mM potassium phosphate buffer; setting = 200 µM, pH 7.0, 1% DMSO; how to read = higher = more aggregation; measurement = DLS scattered light intensity; value = 1.83e+07 counts/s
Compound = CCCC1CCC(c2ccc(-c3ccc(CC)cc3)cc2)CC1 (stereo not shown); test = measured: compound; system = human pregnant women, female fetuses, maternal serum; setting = dose not given, paired maternal-cord samples, mean; measurement = concentration; value = 0.47 ng/mL
Compound = Cc1ccc([C@@H]2O[C@H](CO)[C@@H](O)[C@H](O)[C@H]2O)cc1Cc1ccc(-c2ccc(F)cc2)s1; system = Japanese type 2 diabetes patients; setting = 100 mg, day 18, 24 h urine collection; how to read = reference: baseline; measurement = urinary potassium excretion change; value = -4.99 mEq
Compound = CC(C)(C(=O)N1CCOc2c(C#N)cncc2C1)C(F)F; test = measured: Investigations; system = human; setting = oral, 15 mg twice daily, 14 days, multiple ascending dose; measurement = subjects with adverse event; value = 12.5%
Compound = COc1ccc(NC(=O)N2CCCCN3[C@H](CO)[C@H](c4ccc(C#Cc5ccccc5)cc4)[C@@H]3C2)cc1; system = CD-1 mouse; setting = intravenous, dose not given; measurement = Vss; value = 12 L/kg
Compound = Cc1cc(C)c(CNC(=O)c2cc(Cl)c3c(c2C)O[C@@](C)([C@H]2CC[C@H](N(C)C)CC2)O3)c(=O)[nH]1; test = measured: Hypertension; system = human patients; setting = oral, 200 mg once daily, 1 day onset day 14; measurement = patients with grade ≥3 TEAE; value = 0%
Compound = CC(C)NCC(O)COc1cccc2ccccc12 (stereo not shown); system = male Hartley guinea pig, anaesthetized; setting = intravenous infusion, 0.3 mg/kg, 10 min infusion, post-infusion; measurement = QTc interval; value = 346 ± 0.7 ms
Compound = Cl.[2H]C([2H])([2H])CC(=O)c1cnc(NC(=O)C2CC2)cc1Nc1cccc(-c2ncn(C([2H])([2H])[2H])n2)c1OC; test = geometric mean; system = human; setting = oral, 20 mg once daily, day 7, fasted, liquid, multiple dose; measurement = AUC(0-inf); value = 1460 ng·h/mL
Compound = NC(=O)N1c2ccccc2C=Cc2ccccc21; test = measured: initial insomnia; system = human male; setting = oral, dose not given, CTCAE on-treatment AEs; measurement = adverse events incidence; value = 0%
Compound = CC(C)[C@H](N)C(=O)NCCCS(=O)(=O)O; system = human both sexes, plasma; setting = oral, 171 mg twice daily days 2-7, day 7, fasted capsule; measurement = AUC(0-12); value = 5790 ng·h/mL
Compound = CO/N=C(\C(=O)N[C@@H]1C(=O)N2C(C(=O)[O-])=C(C[N+]3(C)CCCC3)CS[C@H]12)c1csc(N)n1; system = human whole blood; setting = concentration not given, 48 h, 4 °C; measurement = deviation from nominal concentration; value = 5.6%
Compound = Cc1cc(-c2nccc3c2ccn3CC(=O)Nc2ccc(-c3cnccn3)cn2)ccn1; system = human; setting = 20 mg once daily, multiple ascending dose; measurement = vessel puncture site haematoma; value = 0%
Compound = OC[C@H]1O[C@@H](c2ccc(Cl)c(Cc3ccc(O[C@H]4CCOC4)cc3)c2)[C@H](O)[C@@H](O)[C@@H]1O; system = Japanese type 1 diabetes patients, blood; setting = 2.5 mg, day 28; how to read = reference: baseline; measurement = change in ALT; value = 1 U/L
Compound = C[C@@H]1COCCN1c1cc(C2([S@](C)(=N)=O)CC2)nc(-c2cc[nH]c3nccc2-3)n1; system = Japanese advanced solid tumour patients; setting = oral, 160 mg twice daily, any grade; measurement = Pyrexia incidence; value = 16.7%
Compound = O=C1c2ccncc2C(=O)c2c1[nH]c1ccccc21; system = Sprague-Dawley rat male, plasma; setting = intravenous, 1 mg/kg; measurement = terminal half-life; value = 6.5 ± 0.8 h
Compound = FC(F)(F)c1ccc(CNc2ccc(Cc3c[nH]c4ncc(Cl)cc34)cn2)cn1; system = patients with advanced solid tumours; setting = oral, 1000 mg/day, TGCT cohort, all grades; measurement = dry mouth incidence; value = 10%
Compound = C[C@@H](O)[C@H]1C(=O)N2C(C(=O)O)=C(S[C@@H]3CN[C@H](C(=O)N(C)C)C3)[C@H](C)[C@H]12; system = human whole blood; setting = concentration not given, 8 h, 4 °C; measurement = deviation from nominal concentration; value = 2.4%
Compound = O=C(Nc1nc2cccc(-c3ccc(CN4CCS(=O)(=O)CC4)cc3)n2n1)C1CC1; test = measured: first degree atrioventricular block; system = human rheumatoid arthritis patients; setting = oral, 300 mg once daily, 4 weeks, regardless of relatedness; measurement = treatment-emergent adverse events; value = 0%
Compound = COc1cc(/C=N\NC(=O)c2ccc(Br)cc2)ccc1OC(=O)c1cccs1; test = haemolysis; system = sheep erythrocytes; setting = 1 h, pH 7.5; measurement = HC50; value = > 128 µg/mL
Compound = CC(C)(Sc1ccncc1-c1ccc(C#N)c2ccccc12)C(=O)O; system = human, urine; setting = oral, 5 mg, with: febuxostat 40 mg; measurement = fraction excreted in urine (0-24 h); value = 1.67%
Compound = C[C@H](CCC(=O)NCC(=O)O)[C@H]1CC[C@H]2[C@@H]3[C@H](O)C[C@@H]4C[C@H](O)CC[C@]4(C)[C@H]3CC[C@]12C; system = human, plasma; setting = endogenous baseline diurnal; measurement = daily mean concentration; value = 482 ± 64 nM
Compound = NCCONC(=O)[C@@H]1CC[C@@H]2CN1C(=O)N2OS(=O)(=O)O; test = measured: infusion-related reaction; system = healthy Chinese men; setting = intravenous, 1 g, treatment-related; measurement = adverse event incidence; value = 0%
Compound = O=C(CCCN1CC=C(n2c(=O)[nH]c3ccccc32)CC1)c1ccc(F)cc1; system = male Hartley guinea pig, anaesthetized; setting = intravenous, 0.1 mg/kg, baseline before infusion; measurement = QTc interval; value = 319 ± 0.5 ms
Compound = O=C1CCc2ccc(OCCCCN3CCN(c4cccc(Cl)c4Cl)CC3)cc2N1; test = measured: Constipation; system = genotyped patients, CYP2D6 normal metabolizers; setting = dose not given, long-acting oral or depot; measurement = adverse event incidence; value = 0.8%
Compound = CC(C)NCC(O)c1ccc(NS(C)(=O)=O)cc1 (racemic); system = male Hartley guinea pig, anaesthetized; setting = intravenous, 3 mg/kg, baseline before infusion; measurement = QTc interval; value = 335 ± 0.5 ms
Compound = COc1cc(Nc2ncc3c(n2)-c2ccc(Cl)cc2C(c2c(F)cccc2OC)=NC3)ccc1C(=O)O; system = patients; setting = oral, dose not given, grade 1, any attribution, with: pembrolizumab; measurement = decreased white cell count incidence; value = 29%
Compound = CCc1ccc(C(COC)NS(=O)(=O)c2ccsc2C(=O)O)o1 (stereo not shown); test = colloidal aggregate formation, dynamic light scattering; system = 50 mM potassium phosphate buffer; setting = 200 µM, pH 7.0, 1% DMSO; how to read = higher = more aggregation; measurement = DLS scattered light intensity; value = 384000 counts/s
Compound = CNCc1ccc(-c2[nH]c3cc(F)cc4c3c2CCNC4=O)cc1; system = patients; setting = oral, 240 mg twice daily, all grades; measurement = asthenia/fatigue incidence; value = 66.7%
Compound = O=C1Cc2cc(CCN3CCN(c4nsc5ccccc45)CC3)c(Cl)cc2N1; system = male Hartley guinea pig, anaesthetized; setting = intravenous infusion, 0.1 mg/kg, 10 min infusion, post-infusion; measurement = QTc interval; value = 352 ± 0.7 ms
Compound = COc1cc2c3c(n(CCCNC(C)C)c(=O)c2cc1OC)-c1nc2c(cc1C3=O)OCO2; system = male CD1 mouse, plasma; setting = intravenous, 1 mg/kg; measurement = Vss; value = 22.2 L/kg
Compound = CNC(=O)c1ccc(-c2cnc3ncc(Cc4ccc5ncccc5c4)n3n2)cc1F; system = healthy human subjects; setting = oral, 200 mg, all grades, all causality, with: itraconazole 200 mg/day; measurement = vessel puncture site haematoma incidence; value = 7.4%
Compound = COc1ncc(-c2nc3c(n2C(C)C)[C@H](c2ccc(Cl)cc2)N(c2cc(Cl)cn(C)c2=O)C3=O)c(OC)n1; system = human patients, plasma; setting = oral, 250 mg, high-dose arm, cycle 1 day 1; measurement = AUC(0-t) geometric mean; value = 41400 ng·h/mL
Compound = COc1cc(C(=O)NC2CCN(C)CC2)c(F)cc1Nc1ncc(C(F)(F)F)c(Oc2cccc3c2C(=O)N(C)C3)n1; system = human patients, plasma; setting = oral, 100 mg once daily repeated, geometric mean; measurement = dose-normalised Cmax at steady state; value = 14.3 nmol/L per mg
Compound = O=C(O)CCC(=O)O.[2H]C([2H])([2H])Oc1cc(C)c2[nH]ccc2c1CN1CC[C@@H](C2CC2)C[C@H]1c1ccc(C(=O)O)cc1; system = healthy Chinese subjects; setting = 600 mg, single ascending dose; measurement = TEAE decreased neutrophil; value = 0%
Compound = Cc1cnc(N2CC3(CCOCC3)C2)c(C(=O)Nc2ccc(C(=O)N3CCc4cc(C(=O)Nc5c(C)cccc5F)sc4-c4ccccc43)cc2)c1; system = human, nasal mucosal lining fluid; setting = inhaled, 5 mg twice daily, 48 h; measurement = concentration; value = 13500 ng/mL
Compound = O=C(CCCN1CCC(O)(c2ccc(Cl)cc2)CC1)c1ccc(F)cc1; system = male Hartley guinea pig, anaesthetized; setting = intravenous infusion, 0.01 mg/kg, 10 min infusion, post-infusion; measurement = QTc interval; value = 348 ± 0.4 ms
Compound = Cc1ccc(Sc2ccccc2N2CCNCC2)c(C)c1; test = measured: haemoglobin decreased; system = healthy adult men; setting = oral, 20 mg daily, 12 days; measurement = participants with TEAE; value = 0%
Compound = O=C1CC[C@H](N2Cc3cc(N4CCN(CC5CCN(c6ccc([C@@H]7c8ccc(O)cc8CC[C@@H]7c7ccccc7)cc6)CC5)CC4)ccc3C2=O)C(=O)N1; system = EpiIntestinal microtissues incubation buffer; setting = 40 µM, 0 h; measurement = buffer concentration; value = 38.5 µM
Compound = CNCCOC12CC3(C)CC(C)(CC(Cn4ncc(-c5ccc(N6CCc7cccc(C(=O)Nc8nc9ccccc9s8)c7C6)nc5C(=O)O)c4C)(C3)C1)C2; system = beagle dog, male, anaesthetised; setting = intravenous bolus, 0.03 mg/kg, 10 min; how to read = reference: baseline; measurement = PR interval change; value = -6 ms
Compound = O=C(O)CSc1nnc(Br)n1-c1ccc(C2CC2)c2ccccc12; system = KM mouse, chronic hyperuricaemia model; setting = dose not given, day 16; measurement = body weight; value = 37.6 g and 29 g and 30 g and 34.4 g and 34 g and 35.4 g
Compound = O=C(O)CC[C@H](NC(=O)N[C@@H](CCCCNC(=O)[C@H](Cc1ccc2ccccc2c1)NC(=O)[C@H]1CC[C@H](CNC(=O)CN2CCN(CC(=O)O)CCN(CC(=O)O)CCN(CC(=O)O)CC2)CC1)C(=O)O)C(=O)O; system = male BALB/c nude mice, LS174T-PSMA xenografts, salivary gland; setting = intravenous, 0.3 nmol, 2 h, radiolabelled (111In or 99mTc); how to read = reference: tumour over salivary gland; measurement = tumour-to-tissue ratio; value = 233 ± 68.5
Compound = CC(C)[C@@H](CS(=O)(=O)C(C)C)N1C(=O)[C@@](C)(CC(=O)O)C[C@H](c2cccc(Cl)c2)[C@H]1c1ccc(Cl)cc1; system = FVB Abcg2-/- mice, plasma; setting = intravenous, 20 mg/kg; measurement = volume of distribution; value = 0.504 L/kg
Compound = C[C@@H](Nc1cc(F)cc(F)c1)c1cc(C(=O)N(C)C)cc2c(=O)cc(N3CCOCC3)oc12; system = human; setting = oral, 60 mg twice daily, vistusertib alone, 5:2 schedule, steady state; measurement = AUC(0-12); value = 1560 ng·h/mL
Compound = COc1ccnc(C(=O)NCC(=O)O)c1O; test = soil adsorption; system = soil; setting = pH 6.9, organic carbon 0.8 %; measurement = Freundlich coefficient KF; value = 7.08 mL/g
Compound = O=S(=O)(Nc1c(Cl)ccc2c1OCO2)c1cc(Cl)cc(Cl)c1O; test = colloidal aggregate formation, dynamic light scattering; system = 50 mM potassium phosphate buffer; setting = 200 µM, pH 7.0, 1% DMSO; how to read = higher = more aggregation; measurement = DLS scattered light intensity; value = 1.32e+07 counts/s
Compound = C[C@H]1[C@H]2N(C(=O)CN(C)N2C(=O)NCc2ccccc2)[C@@H](Cc2ccc(OP(=O)(O)O)cc2)C(=O)N1Cc1cccc2cccnc12; system = patients, plasma; setting = intravenous infusion, 140 mg/m2 over 4 h, mean; measurement = AUC(0-24 h); value = 3350 ng·h/mL
Compound = CCCCCCCOc1ccc(CCC(N)(CO)CO)cc1C(F)(F)F.Cl; system = healthy men, urine; setting = oral, 0.125 mg once daily, day 21, fed state; how to read = reference: dose; measurement = urinary excretion; value = 0.06%
Compound = CON(C)C(=O)[C@H](CCSC)NS(=O)(=O)c1cccc(Cl)c1O; test = colloidal aggregate formation, dynamic light scattering; system = 50 mM potassium phosphate buffer; setting = 200 µM, pH 7.0, 1% DMSO; how to read = higher = more aggregation; measurement = DLS scattered light intensity; value = 589000 counts/s

Repeated from above:
Compound = C[C@H](CCC(=O)NCC(=O)O)[C@H]1CC[C@H]2[C@@H]3[C@H](O)C[C@@H]4C[C@H](O)CC[C@]4(C)[C@H]3CC[C@]12C; system = human, plasma; setting = endogenous baseline diurnal; measurement = daily mean concentration; value = 482 ± 64 nM
Compound = NCCONC(=O)[C@@H]1CC[C@@H]2CN1C(=O)N2OS(=O)(=O)O; test = measured: infusion-related reaction; system = healthy Chinese men; setting = intravenous, 1 g, treatment-related; measurement = adverse event incidence; value = 0%
Compound = O=C(CCCN1CC=C(n2c(=O)[nH]c3ccccc32)CC1)c1ccc(F)cc1; system = male Hartley guinea pig, anaesthetized; setting = intravenous, 0.1 mg/kg, baseline before infusion; measurement = QTc interval; value = 319 ± 0.5 ms
Compound = O=C1CCc2ccc(OCCCCN3CCN(c4cccc(Cl)c4Cl)CC3)cc2N1; test = measured: Constipation; system = genotyped patients, CYP2D6 normal metabolizers; setting = dose not given, long-acting oral or depot; measurement = adverse event incidence; value = 0.8%
Compound = CC(C)NCC(O)c1ccc(NS(C)(=O)=O)cc1 (racemic); system = male Hartley guinea pig, anaesthetized; setting = intravenous, 3 mg/kg, baseline before infusion; measurement = QTc interval; value = 335 ± 0.5 ms
